Measurements of several laboratories.
Each numbered part is a random draw from the data of one study; scales do not carry over between parts.
Sequence of UniProt Q09013 (whole entry, looked up): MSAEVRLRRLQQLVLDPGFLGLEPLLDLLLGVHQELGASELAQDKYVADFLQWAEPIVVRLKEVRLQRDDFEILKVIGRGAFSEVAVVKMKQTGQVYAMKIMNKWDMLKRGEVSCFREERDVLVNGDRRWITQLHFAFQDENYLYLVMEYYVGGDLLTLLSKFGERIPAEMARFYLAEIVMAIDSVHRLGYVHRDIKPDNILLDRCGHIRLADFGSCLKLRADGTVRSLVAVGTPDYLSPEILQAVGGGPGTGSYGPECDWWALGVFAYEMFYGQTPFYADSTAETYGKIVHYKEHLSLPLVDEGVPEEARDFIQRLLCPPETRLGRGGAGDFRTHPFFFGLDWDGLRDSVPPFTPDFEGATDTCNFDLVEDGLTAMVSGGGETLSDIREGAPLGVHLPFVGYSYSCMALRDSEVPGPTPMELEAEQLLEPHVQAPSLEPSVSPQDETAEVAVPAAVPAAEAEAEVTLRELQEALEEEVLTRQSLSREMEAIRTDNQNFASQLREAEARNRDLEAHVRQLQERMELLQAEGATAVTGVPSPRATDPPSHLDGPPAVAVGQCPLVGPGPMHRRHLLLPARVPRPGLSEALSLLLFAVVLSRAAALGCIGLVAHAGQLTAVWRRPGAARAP
Sequence of UniProt Q16584 (whole entry, looked up): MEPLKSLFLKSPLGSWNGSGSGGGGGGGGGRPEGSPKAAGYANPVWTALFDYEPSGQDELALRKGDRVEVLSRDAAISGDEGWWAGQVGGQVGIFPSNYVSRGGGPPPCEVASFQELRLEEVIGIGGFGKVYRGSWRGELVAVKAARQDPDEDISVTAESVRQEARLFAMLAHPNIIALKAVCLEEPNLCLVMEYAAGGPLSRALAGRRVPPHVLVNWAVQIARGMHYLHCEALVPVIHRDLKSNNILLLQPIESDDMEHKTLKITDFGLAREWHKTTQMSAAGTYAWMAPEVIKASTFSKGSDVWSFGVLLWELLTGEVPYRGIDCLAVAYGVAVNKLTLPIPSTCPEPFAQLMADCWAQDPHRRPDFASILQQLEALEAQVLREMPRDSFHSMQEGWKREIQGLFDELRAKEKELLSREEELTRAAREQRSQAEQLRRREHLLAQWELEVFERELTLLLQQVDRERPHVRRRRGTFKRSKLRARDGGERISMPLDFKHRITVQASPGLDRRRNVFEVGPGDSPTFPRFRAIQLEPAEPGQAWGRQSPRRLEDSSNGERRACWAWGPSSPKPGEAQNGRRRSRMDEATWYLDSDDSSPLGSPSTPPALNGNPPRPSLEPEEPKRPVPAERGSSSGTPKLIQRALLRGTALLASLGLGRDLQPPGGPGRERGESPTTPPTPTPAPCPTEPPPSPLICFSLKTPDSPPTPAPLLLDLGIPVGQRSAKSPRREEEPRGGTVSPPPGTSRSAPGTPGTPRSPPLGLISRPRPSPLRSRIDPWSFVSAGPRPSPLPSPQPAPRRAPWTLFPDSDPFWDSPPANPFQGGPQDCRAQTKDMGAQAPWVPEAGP
Sequence of UniProt Q9NRP7 (whole entry, looked up): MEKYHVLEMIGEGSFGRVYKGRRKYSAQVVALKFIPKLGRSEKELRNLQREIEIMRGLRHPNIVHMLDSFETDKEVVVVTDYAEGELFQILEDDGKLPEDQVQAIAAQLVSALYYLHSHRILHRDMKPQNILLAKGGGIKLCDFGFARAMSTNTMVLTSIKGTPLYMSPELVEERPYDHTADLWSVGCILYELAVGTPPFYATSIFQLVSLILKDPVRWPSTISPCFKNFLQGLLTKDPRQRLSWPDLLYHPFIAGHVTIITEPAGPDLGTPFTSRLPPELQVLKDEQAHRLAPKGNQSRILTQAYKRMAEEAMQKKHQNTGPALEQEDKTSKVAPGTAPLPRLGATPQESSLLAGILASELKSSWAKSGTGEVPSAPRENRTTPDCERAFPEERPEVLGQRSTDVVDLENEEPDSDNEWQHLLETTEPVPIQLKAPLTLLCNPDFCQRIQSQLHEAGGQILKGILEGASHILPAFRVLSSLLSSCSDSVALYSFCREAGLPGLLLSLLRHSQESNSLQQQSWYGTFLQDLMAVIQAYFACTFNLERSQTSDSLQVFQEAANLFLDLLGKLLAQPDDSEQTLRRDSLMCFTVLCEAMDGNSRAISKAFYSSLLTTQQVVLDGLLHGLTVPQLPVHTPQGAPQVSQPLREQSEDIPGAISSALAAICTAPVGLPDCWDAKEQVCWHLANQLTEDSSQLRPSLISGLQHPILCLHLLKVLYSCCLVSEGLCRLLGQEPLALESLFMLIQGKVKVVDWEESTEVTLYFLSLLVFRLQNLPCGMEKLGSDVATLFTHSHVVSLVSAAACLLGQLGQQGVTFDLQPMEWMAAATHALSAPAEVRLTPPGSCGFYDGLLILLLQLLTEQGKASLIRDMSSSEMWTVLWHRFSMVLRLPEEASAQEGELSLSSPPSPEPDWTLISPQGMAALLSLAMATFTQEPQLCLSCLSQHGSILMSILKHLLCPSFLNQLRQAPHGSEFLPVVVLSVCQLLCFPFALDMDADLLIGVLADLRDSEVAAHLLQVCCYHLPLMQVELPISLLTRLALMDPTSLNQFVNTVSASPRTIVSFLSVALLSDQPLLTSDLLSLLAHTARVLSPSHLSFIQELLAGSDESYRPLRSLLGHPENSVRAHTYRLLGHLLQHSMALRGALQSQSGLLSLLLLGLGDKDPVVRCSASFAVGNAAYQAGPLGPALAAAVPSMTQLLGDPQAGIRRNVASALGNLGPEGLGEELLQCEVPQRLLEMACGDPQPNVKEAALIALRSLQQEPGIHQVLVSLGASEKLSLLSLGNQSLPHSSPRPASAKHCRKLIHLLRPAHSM
Sequence of UniProt Q15349 (whole entry, looked up): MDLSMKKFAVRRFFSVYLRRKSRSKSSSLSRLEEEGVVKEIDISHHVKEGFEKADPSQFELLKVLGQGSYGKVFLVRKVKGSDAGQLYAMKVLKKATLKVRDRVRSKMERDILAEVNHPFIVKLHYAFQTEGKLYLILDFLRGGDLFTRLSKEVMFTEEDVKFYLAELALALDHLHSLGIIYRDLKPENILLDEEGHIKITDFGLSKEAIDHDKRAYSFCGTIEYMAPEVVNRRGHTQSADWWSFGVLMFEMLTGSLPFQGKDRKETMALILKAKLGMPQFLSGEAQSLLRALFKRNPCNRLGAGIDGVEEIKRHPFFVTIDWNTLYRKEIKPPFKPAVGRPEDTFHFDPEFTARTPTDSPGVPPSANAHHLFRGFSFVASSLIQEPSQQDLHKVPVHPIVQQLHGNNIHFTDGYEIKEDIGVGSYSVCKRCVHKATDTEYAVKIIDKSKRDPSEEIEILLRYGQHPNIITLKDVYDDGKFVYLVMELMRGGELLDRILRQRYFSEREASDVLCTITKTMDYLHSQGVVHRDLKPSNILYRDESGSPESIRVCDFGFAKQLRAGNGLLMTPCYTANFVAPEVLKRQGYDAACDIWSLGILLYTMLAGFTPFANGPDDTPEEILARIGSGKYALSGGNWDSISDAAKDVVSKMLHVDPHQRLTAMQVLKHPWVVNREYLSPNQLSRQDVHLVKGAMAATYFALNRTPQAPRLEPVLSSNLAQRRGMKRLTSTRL
Sequence of UniProt Q86YV6 (whole entry, looked up): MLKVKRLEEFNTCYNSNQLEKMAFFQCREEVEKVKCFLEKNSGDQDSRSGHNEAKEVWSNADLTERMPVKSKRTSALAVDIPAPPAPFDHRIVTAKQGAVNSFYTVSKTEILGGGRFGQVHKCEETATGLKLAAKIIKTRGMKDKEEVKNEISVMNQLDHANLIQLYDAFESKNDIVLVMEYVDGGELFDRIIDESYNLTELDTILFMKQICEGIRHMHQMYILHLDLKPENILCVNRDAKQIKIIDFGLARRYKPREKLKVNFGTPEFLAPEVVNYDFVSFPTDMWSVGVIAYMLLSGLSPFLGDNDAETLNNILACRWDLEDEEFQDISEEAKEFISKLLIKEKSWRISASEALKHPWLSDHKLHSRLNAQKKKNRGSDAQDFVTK

Study 1
Structure (SMILES): CN(C(=O)c1ccccc1)c1cc(N(C)c2ccc3c(c2)CCc2ccc(C(=O)NCCN4CCOCC4)cc2C3=O)ccc1F
Observed: cell-free assay
Technique: competition with immobilised ligand
Concentration: 1 µM
It gave 100% for remaining binding (BMPR1B (Homo sapiens, UniProt O00238)).
SIK2 (Homo sapiens, UniProt Q9H0K1) — remaining binding: 100%.
ACVR1B (Homo sapiens, UniProt P36896) — remaining binding: 89%.
For WEE1 (Homo sapiens, UniProt P30291): remaining binding read 87%.
The remaining binding was 64% (PIK3CA (Homo sapiens, UniProt P42336, E542K)).
For STK32C (Homo sapiens, UniProt Q86UX6): remaining binding read 95%.
For MYLK4 (Homo sapiens, UniProt Q86YV6): remaining binding read 95%.
It gave 100% for remaining binding (MAP3K19 (Homo sapiens, UniProt Q56UN5)).
For MAP3K4 (Homo sapiens, UniProt Q9Y6R4): remaining binding read 80%.
It gave 88% for remaining binding (PRKD3 (Homo sapiens, UniProt O94806)).
The remaining binding was 100% (HASPIN (Homo sapiens, UniProt Q8TF76)).
WNK3 (Homo sapiens, UniProt Q9BYP7) — remaining binding: 99%.
Non-receptor tyrosine-protein kinase TYK2, JH1 (TYK2, Homo sapiens, UniProt P29597) — remaining binding: 100%.
The remaining binding was 69% (DMPK (Homo sapiens, UniProt Q09013)).
The remaining binding was 100% (Ribosomal protein S6 kinase alpha-2, N-terminal kinase domain (RPS6KA2, Homo sapiens, UniProt Q15349)).
For STK36 (Homo sapiens, UniProt Q9NRP7): remaining binding read 93%.

Study 2
Host: mouse
Medium: microsomes or S9
Concentration: 2 µM
Time: 0.5 h
For Cc1ccc(Nc2cc(N3CCN(c4oc(C)nc4C#N)CC3)ncn2)cc1, the remaining compound was 6.96%.
COc1cc(OC)c2c(=O)cc(-c3ccccc3)oc2c1 has a remaining compound of 0.00593%.
CCC(=O)N1CCC(N(C(=O)COC)C2CCOCC2)CC1 gave a remaining compound of 91.5%.
The remaining compound of COC(=O)/C(=C(/F)OCC(=O)N(C)c1ccc(F)cc1)c1ccc(OC)cc1 is reported as 3.79%.
With CC(C)n1c(=O)c2cn(S(=O)(=O)c3ccc(C4CCCCC4)cc3)nc2n(C(C)C)c1=O the remaining compound was greater than 100%.
CC(O)CN(Cc1ccc(C(C)(C)C)s1)C1CCS(=O)(=O)CC1 (stereo not shown) has a remaining compound of 1.38%.

Study 3
SMILES: C=CCc1ccc(O)c(-c2ccc(O)c(CC=C)c2)c1
Observed: chloride current
ANO1 del476-501/F628A: Anoctamin-1 (ANO1, Homo sapiens, UniProt Q5XXA6, del476-501/F628A)
Sequence of UniProt Q5XXA6 (whole entry, unmodified, looked up): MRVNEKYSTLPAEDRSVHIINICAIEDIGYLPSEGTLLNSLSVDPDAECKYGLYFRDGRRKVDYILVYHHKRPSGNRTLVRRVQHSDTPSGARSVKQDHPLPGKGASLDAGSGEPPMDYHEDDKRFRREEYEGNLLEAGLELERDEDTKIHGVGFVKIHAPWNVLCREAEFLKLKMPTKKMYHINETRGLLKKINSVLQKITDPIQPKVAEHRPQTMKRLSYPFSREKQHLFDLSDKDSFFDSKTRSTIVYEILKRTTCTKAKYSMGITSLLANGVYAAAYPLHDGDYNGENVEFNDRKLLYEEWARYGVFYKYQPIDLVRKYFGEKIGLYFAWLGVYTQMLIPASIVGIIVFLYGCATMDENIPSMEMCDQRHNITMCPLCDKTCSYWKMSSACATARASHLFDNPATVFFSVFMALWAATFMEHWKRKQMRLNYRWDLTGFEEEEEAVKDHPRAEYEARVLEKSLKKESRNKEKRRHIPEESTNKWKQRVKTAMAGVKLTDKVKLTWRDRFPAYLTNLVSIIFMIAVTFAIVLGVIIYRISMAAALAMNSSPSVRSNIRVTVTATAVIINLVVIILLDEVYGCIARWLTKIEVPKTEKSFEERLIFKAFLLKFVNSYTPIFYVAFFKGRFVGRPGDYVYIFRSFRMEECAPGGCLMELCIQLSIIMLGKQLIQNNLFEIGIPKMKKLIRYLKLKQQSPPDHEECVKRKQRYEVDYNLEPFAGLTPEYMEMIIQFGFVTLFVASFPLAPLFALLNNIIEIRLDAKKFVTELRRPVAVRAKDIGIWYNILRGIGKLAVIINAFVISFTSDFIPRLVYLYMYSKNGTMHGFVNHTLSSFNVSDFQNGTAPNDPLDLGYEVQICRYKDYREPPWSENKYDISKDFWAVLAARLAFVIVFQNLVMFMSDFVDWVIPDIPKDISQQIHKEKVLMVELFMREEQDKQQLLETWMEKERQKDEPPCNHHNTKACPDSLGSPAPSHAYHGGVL
It gave -0.0531 for normalized current (Anoctamin-1 (ANO1, Homo sapiens, UniProt Q5XXA6, del476-501); whole-cell voltage clamp; 10 µM, wild type, concentration-response at -20 mV, added: 4 µM Ca2+).
It gave 0.297 for normalized current (ANO1 del476-501/F628A; whole-cell voltage clamp; 1 µM, I-V at 40 mV, added: 4 µM Ca2+).
For Anoctamin-1 (ANO1, Homo sapiens, UniProt Q5XXA6, del476-501/R631A); inhibitor, whole-cell voltage clamp; 10 µM, R605A mutant: normalized current read 0.198.
ANO1 del476-501/F628A; whole-cell voltage clamp; 3 µM, concentration-response at 100 mV, added: 4 µM Ca2+ — normalized current: 0.853.
It gave -0.298 for normalized current (ANO1 del476-501/F628A; whole-cell voltage clamp; 10 µM, concentration-response at -40 mV, added: 4 µM Ca2+).
It gave -0.192 for normalized current (Anoctamin-1 (ANO1, Homo sapiens, UniProt Q5XXA6, del476-501/E659A); inside-out patch clamp; 10 µM, membrane voltage -20 mV).

Study 4
SMILES: Cc1sc(C(=O)NC2COC2)cc1-n1cc(NC(=O)Nc2c(F)cccc2Cl)cn1
Observed: enzyme activity
Concentration: 10 µM
Reference: untreated control
It gave 96% for remaining activity (SRC (Homo sapiens, UniProt P12931)).
The remaining activity was 102% (PTK2B (Homo sapiens, UniProt Q14289)).
It gave 86.3% for remaining activity (MAP3K11 (Homo sapiens, UniProt Q16584)).
It gave 85% for remaining activity (BRSK1 (Homo sapiens, UniProt Q8TDC3)).
It gave 94.2% for remaining activity (DMPK (Homo sapiens, UniProt Q09013)).
It gave 91.9% for remaining activity (BMX (Homo sapiens, UniProt P51813)).

Repeated from above (study 2):
The remaining compound of COC(=O)/C(=C(/F)OCC(=O)N(C)c1ccc(F)cc1)c1ccc(OC)cc1 is reported as 3.79%.
COc1cc(OC)c2c(=O)cc(-c3ccccc3)oc2c1 has a remaining compound of 0.00593%.
CCC(=O)N1CCC(N(C(=O)COC)C2CCOCC2)CC1 gave a remaining compound of 91.5%.
For Cc1ccc(Nc2cc(N3CCN(c4oc(C)nc4C#N)CC3)ncn2)cc1, the remaining compound was 6.96%.
